Published values of several laboratories.
Parts stem from different laboratories: compare values within a part only. Substitutions count along the parent as printed.

Study 1
Target: ABI1, truncated, D143A, DHFR fusion (Arabidopsis thaliana)
Method: DHFR PCA, deep sequencing
Sample: yeast
Setting: methotrexate growth selection, single substitutions
With: (+)-ABA 0.032 µM
Reference: wild-type fitted maximum
Direction: higher = stronger binding
Parent: PYL1, truncated, DHFR fusion (Arabidopsis thaliana); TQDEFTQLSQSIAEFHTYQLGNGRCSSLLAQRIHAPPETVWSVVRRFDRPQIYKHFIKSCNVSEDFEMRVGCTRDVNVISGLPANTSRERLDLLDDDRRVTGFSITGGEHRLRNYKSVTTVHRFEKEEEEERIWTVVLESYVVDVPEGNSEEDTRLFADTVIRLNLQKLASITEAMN; partner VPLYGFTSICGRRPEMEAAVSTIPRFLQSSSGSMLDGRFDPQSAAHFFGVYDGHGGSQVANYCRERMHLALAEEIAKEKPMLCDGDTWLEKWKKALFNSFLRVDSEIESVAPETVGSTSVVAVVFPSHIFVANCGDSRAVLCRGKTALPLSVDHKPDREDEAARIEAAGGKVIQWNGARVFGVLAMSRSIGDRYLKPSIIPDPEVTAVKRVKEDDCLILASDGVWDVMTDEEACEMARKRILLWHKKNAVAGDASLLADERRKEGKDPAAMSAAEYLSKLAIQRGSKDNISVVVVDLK
Variant	relative binding score
F157H	8.95%
F56H	4.29%
T17G	-1.97%
R111D	0.428%
P36N	15.3%
Q10Y	-0.112%
S87A	8.3%
F66A	2.25%
R88F	6.91%
Q19I	2.26%
I12G	0.235%
D48N	5.38%
H16T	5.38%
I79L	7.88%
E130T	32.5%
V118D	-1.7%
Q31V	-2.46%

Study 2
Target: Prothrombin, mature alpha-thrombin (F2, Homo sapiens, UniProt P00734)
Method: aptamer microarray, sandwich
Form: DNA with 2'F-ANA
Sample: in vitro
Tested at: 200 nM
Setting: whole 15-mer aptamer, many near background
With: Cy3 exosite-II aptamer, 400 nM
Direction: higher = stronger binding
Strand: GGTTGGTGTGGTTGG
Modification	mean fluorescence intensity [a.u.]
2'F-ANA at 2 5 12 14	46.1
2'F-ANA at 2 3 6 7 8 9 12 15	1040
2'F-ANA at 2 4 6 7 8 9 11 12 13	309
2'F-ANA at 1 3 5 8 11 12 13 15	92.3
2'F-ANA at 2 3 6 8 9 10 12	438
2'F-ANA at 1 5 8 10 13	40.5
2'F-ANA at 2 4 8 9 14	97.8
2'F-ANA at 1 3 4 5 6 7 8 9 10 11 12 13 15	55.5
2'F-ANA at 3 4 5 10 12 13 14	131
2'F-ANA at 4 5 8 9 10 11	44.2
2'F-ANA at 1 2 4 11 12 14	50.9
2'F-ANA at 1 4 7 10 13 15	48.7
2'F-ANA at 3 5 7 8 11 13 15	239
2'F-ANA at 1 2 4 8 13 14	115
2'F-ANA at 2 5 6 7 9 10 11 12 14 15	51.2
2'F-ANA at 4 5 6 7 8 9 10 12 13 14 15	49.1
2'F-ANA at 1 2 4 7 8 11 12 14	64.3
2'F-ANA at 2 5 6 7 9 10 12	51.7
2'F-ANA at 2 6 7 11 15	274
2'F-ANA at 2 3 4 5 6 13 15	72.4
2'F-ANA at 1 4 5 6 8 10 12 13	108
2'F-ANA at 3 4 5 6 8 10 11 12 13 14	51.5
2'F-ANA at 1 6 7 9 11 14	61.9
2'F-ANA at 1 2 7 10 12	65.2

Study 3
Target: CCND3, cyclin fold, Cln2 fusion (human)
Method: yeast growth competition, sequencing
Sample: yeast
Setting: weak parent motif
Reference: not given
Direction: higher = stronger binding
Parent: MICAL3 docking peptide (human); LQLRRQLSFSEDS; partner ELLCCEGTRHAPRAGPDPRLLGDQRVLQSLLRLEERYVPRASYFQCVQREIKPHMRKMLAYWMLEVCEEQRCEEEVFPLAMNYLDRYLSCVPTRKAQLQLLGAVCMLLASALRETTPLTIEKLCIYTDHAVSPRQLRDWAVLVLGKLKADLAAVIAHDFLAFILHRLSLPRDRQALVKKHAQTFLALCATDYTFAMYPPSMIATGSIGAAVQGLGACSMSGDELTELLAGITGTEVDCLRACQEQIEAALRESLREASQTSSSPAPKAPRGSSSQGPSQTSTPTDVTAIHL
Variant	normalised enrichment score
LQLVRQLSFSEDS [R4V]	-0.209
LQLRRRLSFSEDS [Q6R]	-0.0453
LQLRRQLSQSEDS [F9Q]	0.131
LQLRRQMSFSEDS [L7M]	0.408
LQLRRQLSFSGDS [E11G]	0.0115
LQLRWQLSFSEDS [R5W]	0.115
LQLRLQLSFSEDS [R5L]	0.144
LQTRRQLSFSEDS [L3T]	0.0551
LQLRRQLSFSCDS [E11C]	0.154
LQLRRQLPFSEDS [S8P]	0.162
LQLRRQLEFSEDS [S8E]	-0.238
LDLRRQLSFSEDS [Q2D]	-0.101
LQLRAQLSFSEDS [R5A]	0.0741

Study 4
Target: BIRC6 UBC core domain (UniProt Q9NR09)
Method: yeast two-hybrid
Sample: yeast
Setting: mostly zero background
Reference: not given
Direction: higher = stronger interaction
B1: UBE4B RING domain (UniProt O95155); chain KNARAEIDYSDAPDEFRDPLMDTLMTDPVRLPSGTIMDRSIILRHLLNSPTDPFNRQTLTESMLEPVPELKEQIQAWMREKQNSDH
B2: RNF32 RING domain (UniProt Q9H0A6); chain VQALRRETHECSICLAPLSAAGGQRVGAGRRSREMALLSCSHVFHHACLLALEEFSVGDRPPFHACPLCRSCYQKKILEC
B3: RFPL3 RING domain (UniProt O75679); chain MAALFQEASSCPVCSDYLEKPMSLECGCTVCLKCINSLQKEPHGEDLLCCCCSMVSQRNKIRP
B4: MDM2 RING domain (UniProt Q00987); chain TQDKEESVESSLPLNAIEPCVICQGRPKNGCIVHGKTGHLMACFTCAKKLKKRNKPCPVCRQPIQMIVLTYFP
B5: RNF17 RING domain (UniProt Q9BXT8); chain SQPWGAAEIQCTRCGRRVSRSSGHHCELQCGHAFCELCLLMTEECTTIICPDCEVATAVNTRQR
B6: TRIM68 RING domain (UniProt Q6AZZ1); chain LVEAIVEEVACPICMTFLREPMSIDCGHSFCHSCLSGLWEIPGESQNWGYTCPLCRAPVQPRNLRP
Residues (chain): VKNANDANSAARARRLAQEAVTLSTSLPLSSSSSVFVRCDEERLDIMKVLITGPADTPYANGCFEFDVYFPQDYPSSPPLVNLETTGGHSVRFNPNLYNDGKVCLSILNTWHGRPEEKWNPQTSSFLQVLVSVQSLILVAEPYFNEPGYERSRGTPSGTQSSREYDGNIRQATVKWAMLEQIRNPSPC
Molecule	lacZ reporter activity
EDVLSKDAGECAICLEELQQGDTIARLPCLCIYHKGCIDEWFEVNRSCPEHPSD (ZNRF2 RING domain (UniProt Q8NHG8))	0
PLRRLQEEKLCKICMDRHIAVVFIPCGHLVTCKQCAEAVDRCPMCSAVIDFKQRVF (BIRC8 RING domain (UniProt Q96P09))	0
EIKDYKARLTCPCCNMRKKDAVLTKCFHVFCFECVKTRYDTRQRKCPKCNAAFGANDFHR (RNF20 RING domain (UniProt Q5VTR2))	0
B1 (UBE4B RING domain)	0
MEEMEEELKCPVCGSFYREPIILPCSHNLCQACARNILVQTPESESPQSHRAAGSGVSDY (TRIM9 RING domain (UniProt Q9C026))	0
VPADASPDSKCPICLDRFDNVSYLDRCLHKFCFRCVQEWSKNKAECPLCKQPFDSIFHSV (TOPORS RING domain (UniProt Q9NS56))	0
B2 (RNF32 RING domain)	0
B3 (RFPL3 RING domain)	0
B4 (MDM2 RING domain)	0
B5 (RNF17 RING domain)	0
KITELNPHLMCALCGGYFIDATTIVECLHSFCKTCIVRYLETNKYCPMCDVQVHKTRPLL (PCGF2 RING domain (UniProt P35227))	0
B6 (TRIM68 RING domain)	0

Study 5
Target: RING finger protein unkempt homolog, zinc fingers 1-6, GST-SBP tag (UNK, Homo sapiens, UniProt Q9C0B0, residues 30-357)
UniProt Q9C0B0, sequence (30-357, looked up): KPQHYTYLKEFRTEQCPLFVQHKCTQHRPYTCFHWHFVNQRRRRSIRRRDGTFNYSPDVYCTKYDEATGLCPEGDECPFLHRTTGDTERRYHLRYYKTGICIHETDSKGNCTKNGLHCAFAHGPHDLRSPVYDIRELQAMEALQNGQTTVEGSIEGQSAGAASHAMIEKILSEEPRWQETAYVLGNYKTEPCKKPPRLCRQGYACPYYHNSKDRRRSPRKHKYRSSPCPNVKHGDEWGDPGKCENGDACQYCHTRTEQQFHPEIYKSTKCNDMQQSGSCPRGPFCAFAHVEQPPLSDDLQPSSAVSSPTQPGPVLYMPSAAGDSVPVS
Method: RNA Bind-n-Seq
Form: RNA
Sample: in vitro
Tested at: not given
Setting: RNA with constant flanks, human and mouse sites, ends assumed
Reference: input RNA pool
Direction: higher = stronger binding
All sequences stand within: GGGAGUUCUACAGUCCGACGAUC … CAACAGAGGAUUGAGCAUCA
Strand	bound/input enrichment [ratio]
GUUACAGGCCCUGGUGGAGUUCCAGUUCAAGGCAGUAAAUACGCAGCAGACCGUAACCAUUAUAGACGCUAUCCACGUCGUAGGGGUCCUCCACGCAAUUACCAGCAAAAUUACCAGAAU	0.226
GCAGUUAAGAAGCUGGGCGCGUCGAGGACUGGGAUUUCAAAUAUGCGUGCAUUAGAGAAUGACUUUUUCAAUUCUCCCCCAAGAAAAACUGUUCGGUUUGGUGGAACUGUGACAGAAGUC	0.464
UGUGUCUGGUGUCUGUCUGUCUCUCUCUGUGUCUGUCUCUGACUCUCUCUCUUUCUCUGUAUGUGUGUGUGUGUGUGUCUGUCUGUCUCUGUCUCUCUUUCUCUUUCUCUUUGGUGGCUA	0.655
CGGAAUCUGCUGGCUCUUCGUCAGAUUGGGCAGAGGACGAUAAGCACUGCUUCCCGCAGGCAUUUUAAAAAUAAAGUUCCGGAGAAGCAAAAACUGUUCCAGGAGGAUGAUGAAAUUCCA	0.159
AUAUAUAACAUGUCUUCUUUCAGAAUGGGAAUAUAUGUGUGCCUCCCAACAUUUACUGUUAAAGUGUGUUAUCUUUAUAUGUCAAACUGGUUGAACACUGUAAUGAGAAUAAACUGCACA	0.165
AGAUUCAUACUUUAAAGGCAUUGAUAUGCAUUUAUAUCAGGUAAGCAACUAUACAGAUCUGCUGAGAGCUUUGAAAAGAAUCUUUUAUCAGCAAAAAGAAAUAGGGGGAGCCUGAGUAUU	0.206
UGGGAUGAAAAUCUAAAAGAUGAUUCUCUUCCUUCAAAUCCAAUAGAUUUUUCUUACAGAGUAGCUGCUUGUCUUCCUAUUGAUGAUGUAUUGAGAAUUCAGCUCCUUAAAAUUGGCAGU	1.01
GCAUUUGUAGAAGGUGUGGUCAAGAAAGUGGCUCAGUACAUGGCUGAUGUGCUGGAGGACAGCAAAGAUAAAGUUCAGGAGAACUUGCUGGCCAGCGGAGUUGACUUGGUUACUUACAUA	0.162
AGGCCACUUUCAGCUGUGAAGACAGAGGCAUCCCCUGAGAGCAUGUUGUCUCCAUCACAUGGCUCAAAUCUUAUUGAAGAUCCUUUAGAGGCAGAGACUCAACACAAGUUUGAAAUGUCA	0.14
AAUAUCAUGCAGGUUUUUAUAUACUGCCUGGAACAACUGAGCACCAAGCCUGAUGCAGACAUAGAUACUACUCAUCUUUCUGUUGAUGUUUCUUCUCCUGAUUUGUUUGGAAGCAUCCAU	0.261
GAGAUUGUCUUCCAGGGCUAGCAAUUGGACUUUUGAUGAUGUUUGACCCAGCGGCAGGAAUAGCAGGCAACGUGAUUUCAAAGCUGGGCUCAGCCUCUGUUUCUUCUCUCGUGUAAUCGC	0.178
